Experimental data of several laboratories.
Numbered parts are unrelated; each lists some results of a single study.

Block 1
Target: Prothrombin, mature alpha-thrombin (F2, Homo sapiens, UniProt P00734)
Method: aptamer microarray, sandwich
Form: DNA with 2'F-ANA
Matrix: in vitro
Tested at: 200 nM
Notes: whole 15-mer aptamer, many near background
With: Cy3 exosite-II aptamer, 400 nM
Reading: higher = stronger binding
Measurement: mean fluorescence intensity
Oligonucleotide: GGTTGGTGTGGTTGG
Modification = 2'F-ANA at 1 2 3 4 10 15; result = 59.2 a.u.
Modification = 2'F-ANA at 1 2 4 5 7 8 9 10 14 15; result = 47.8 a.u.
Modification = 2'F-ANA at 2 3 4 6 7 8 9 12 13 15; result = 554 a.u.
Modification = 2'F-ANA at 1 6 7 8 9 11 12 13; result = 220 a.u.
Modification = 2'F-ANA at 3 7 10 12; result = 802 a.u.
Modification = 2'F-ANA at 1 3 4 5 6 8 9 11 12 14 15; result = 48.7 a.u.
Modification = 2'F-ANA at 3 7 11 14; result = 642 a.u.
Modification = 2'F-ANA at 2 3 4 5 7 9 13; result = 257 a.u.
Modification = 2'F-ANA at 6 7 8 9 11 12 13; result = 619 a.u.
Modification = 2'F-ANA at 1 3 6 8 10 13 15; result = 69.7 a.u.
Modification = 2'F-ANA at 3 5 6 7 8 9 14 15; result = 55.6 a.u.
Modification = 2'F-ANA at 1 6 11 12 13 14 15; result = 66.1 a.u.
Modification = 2'F-ANA at 1 3 5 6 8 9 10 11 12 13; result = 47.3 a.u.
Modification = 2'F-ANA at 2 6 8 10 11 12 13 14 15; result = 76 a.u.
Modification = 2'F-ANA at 1 2 3 6 7 8 9 11 12 13 14; result = 72.9 a.u.
Modification = 2'F-ANA at 2 5 6 7 9 10 15; result = 64.8 a.u.
Modification = 2'F-ANA at 2 6 9 10 12 13; result = 122 a.u.
Modification = 2'F-ANA at 2 4 7 8 9; result = 451 a.u.
Modification = 2'F-ANA at 2 4 6 7 9 10 12; result = 147 a.u.
Modification = 2'F-ANA at 3 12; result = 1340 a.u.
Modification = 2'F-ANA at 1 5 6 8 9 10 11 13; result = 47.7 a.u.
Modification = 2'F-ANA at 1 2 3 4 5 8 11 13 14; result = 47.3 a.u.

Block 2
Target: Histone acetyltransferase KAT6A, winged helix 1, GST fusion (KAT6A, Homo sapiens, UniProt Q92794, residues 1-85)
Method: protein binding microarray
Form: double-stranded DNA, one strand shown
Matrix: in vitro
Tested at: not given
Notes: 8-mer, flanks averaged, mean of 2 arrays, mostly near background
Baseline: not given
Reading: higher = stronger binding
Measurement: E-score
Target sequence (chain): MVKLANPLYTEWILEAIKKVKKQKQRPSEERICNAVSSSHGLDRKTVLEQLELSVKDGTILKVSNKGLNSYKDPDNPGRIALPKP
Oligonucleotide = ACTAGTAT; result = -0.162
Oligonucleotide = CTAGTCAC; result = -0.163
Oligonucleotide = AGCCTCCG; result = 0.0263
Oligonucleotide = CCAGAGAA; result = -0.149
Oligonucleotide = ATTGTAAC; result = -0.00108
Oligonucleotide = AGTCTTTC; result = -0.136
Oligonucleotide = TCTTCACA; result = -0.305
Oligonucleotide = CTAAAGAC; result = 0.0125
Oligonucleotide = CACGGGGG; result = 0.26
Oligonucleotide = GTAAATCA; result = -0.113
Oligonucleotide = GTCACAGA; result = -0.113
Oligonucleotide = AAGTCACA; result = -0.124
Oligonucleotide = ATAAAAAT; result = -0.189
Oligonucleotide = CACTGTGG; result = -0.106
Oligonucleotide = CACTCCCA; result = -0.0941
Oligonucleotide = CTCATGCC; result = -0.0416
Oligonucleotide = GAGAGACA; result = -0.101
Oligonucleotide = ATTGAAGA; result = -0.21
Oligonucleotide = TGTCCTAA; result = -0.209

Block 3
Target: Fragile X messenger ribonucleoprotein 1, C-terminal low-complexity region (Fmr1, Mus musculus, UniProt P35922)
Method: RNA Bind-n-Seq
Form: RNA
Matrix: in vitro
Tested at: 200 nM
Notes: whole 134-nt RNA, ends assumed
With: 150 mM LiCl
Baseline: input library
Reading: higher = stronger binding
Measurement: log2 enrichment
Each molecule: 7-deaza-guanosine replaces G
Constant ends, left off below: GGGAGUUCUACAGUCCGACGAUC … UGGAAUUCUCGGGUGUCAAGG
Oligonucleotide = CCUGUGCUACACAUCGUAUGUACCGAAUCGGGGUUUUUUUGGGGAAAGGGGUUUUUGGGGAAAGUAUUAUGUUACGCCGUUCGGAUCUGC; result = -1.08
Oligonucleotide = CACAGACAACACGCACCCACACAGACACAGAGGGAAGGUGUUGGGAUGGGGACAGGGUGCACAGCAGGGCGGGGUAGGACCCCAGCCCCU; result = -1.72
Oligonucleotide = UUUUGCAUUUAGGGUUUUAACCAAGAAGAUCUGGAAGAAGAAAAAGGUGAAACACAGGUAAAAGAAGCAGAAGAUUCAGAUUCUGAUGAU; result = -3.45
Oligonucleotide = CUCAAGUCCUGUGCUACACAUCGUAUGUACCGAAUCGGGCCGGGCCGGCCGGGAAAGUAUUAUGUUACGCCGUUCGGAUCUGCACUUCCA; result = 1.01
Oligonucleotide = UUCUUUGCCCAACGGGGCCGUGGAUACCUGCCUUUUAAUUCUUUUUUAUUCGCCCAUCGGGGCCGCGGAUACCUGCUUUUUAUUUUUUUU; result = 1.46
Oligonucleotide = CAAGUCCUGUGCUACACAUCGUAUGUACCGAAUCGGGUUUGGGGUUUGGGUUUGGGAAAGUAUUAUGUUACGCCGUUCGGAUCUGCACUU; result = -1.61
Oligonucleotide = AGUCCUGUGCUACACAUCGUAUGUACCGAAUCGGGUUUUUUUGGGUUUUUGGGUGGGAAAGUAUUAUGUUACGCCGUUCGGAUCUGCACU; result = -1.47
Oligonucleotide = UGGCCCUGGUGGCAUGAGGGGAGGAAGAGGUGGCCUCAUGGAUCGUGGUGGUCCCGGUGGAAUGUUCAGAGGUGGCCGUGGUGGAGACAG; result = 0.64
Oligonucleotide = GUCCUGUGCUACACAUCGUAUGUACCGAAUCGGGUUUUUUGGGUUUUUUGGUUUUUUGGAAAGUAUUAUGUUACGCCGUUCGGAUCUGCA; result = -1.61
Oligonucleotide = UCCUCAAGUCCUGUGCUACACAUCGUAUGUACCGAAUCGGCGGGGCGGCGGAAAGUAUUAUGUUACGCCGUUCGGAUCUGCACUUCCAGC; result = 0.566
Oligonucleotide = UCCUGUGCUACACAUCGUAUGUACCGAAUCGGGAAAAAAAGGGAAAAAGGGAAAAAGGGAAAGUAUUAUGUUACGCCGUUCGGAUCUGCA; result = 0.368

Block 4
Target: RNA binding protein fox-1 homolog 2, RRM domain, GST-SBP tag (RBFOX2, Homo sapiens, UniProt O43251-10, residues 100-194)
Method: RNA Bind-n-Seq
Form: RNA
Matrix: in vitro
Tested at: 365 nM
Notes: natural RNA segment, single round, ends assumed
Baseline: no-protein control
Reading: higher = stronger binding
Measurement: RBNS enrichment (R)
Constant ends, left off below: GGGAGUUCUACAGUCCGACGAUC … UGGAAUUCUCGGGUGCCAA
Construct (chain): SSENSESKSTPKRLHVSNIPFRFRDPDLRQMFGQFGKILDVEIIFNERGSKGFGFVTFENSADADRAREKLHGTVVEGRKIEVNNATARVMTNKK
Oligonucleotide = AGCCUUUAGGAUAGGUGAAUAUGUAAAUCUUUUAUCACUUUCUCAAAUUCAAACUAAAGGGGAAAGAUCAAACCCCUUCCCUUCCUACCUGUUUUCUGAGCUGGCUGACU; result = 0.289
Oligonucleotide = GGAGUGUUCAUGGGGAUGUGGGCGAGGUGGGGCACUUUGAAGGAAUGGCGGUCUGCUGGUGCCCUCGAAGGGGCAUCCUUCCUGGUCUUCGCUGACCCAGAGGCGCUGUG; result = 0.393
Oligonucleotide = GCCCCAUCCCUGUCCUCAUGACCCCUCGUCCACCCCCCACACACACUAUAAGGCUGAGGGCUGCCAGCAGCCCCGUCUGCCCACCAUUCCCGGCCGUGGACCAUAGUCGG; result = 0.491
Oligonucleotide = GGUGUAUGUAGUUGGGCCAUGUUACUUGUCCAGAGGAAGAGACUAAAGAUAUAAGAAUAAUUUUUUAGUCCUAAAUGCUGUUUUGUUUACUUUCUGUCAAGAUAUUUACC; result = 1.78
Oligonucleotide = GUGAGUACAUGCCCCAGAGAUGGUGGCCAAGCAGAGCAGUCACCCACAAGGCAGAGUUACUCGUGAGAAAGGGCAGCAGUGUUGUGUGCAUCUGUCAGUCAGGUUGUAUG; result = 0.598
Oligonucleotide = GCAGAGUCACUAGUGGAUGCUGAAGUUACAUGAGCUACAUGUUAAAUAUUUAAAGUCUCCAAAAUAAAACACCCCAACGUUGACCUUACCCGGCUGAUGGUUAGCCCCUU; result = 0.406
Oligonucleotide = UAAAACUAUGGAACCUCCUCUGGCCCCACCCCCUUAUCUUUCCCUACUGUUCAUUGUAAAGGGUCAGGCCCUAUCAGCAGCACUGAUGGGAAUAAAAGUAUUAUUGCUUU; result = 0.402
Oligonucleotide = UCCACUCCCACUGCCAGGAUUUUGUAUUGCCAUCGGGUGCCAAAUAAAUGCUCAUAUUUAUUACUGAUGUGUGCUCAAUAUCUGUUUCUGUAGAUACUCAGUCCUCUGAA; result = 0.57
Oligonucleotide = AGAUCCAAAGGGAAAUUCUAGAGAUCUCUUAGUAAUGUAGUAAGGCAGGCCUUCUUCUUCCGGAGUUGGUGAUUCUAACUUUAGAAGUUCCAGGUUGUGGGCUAUGGUAU; result = 0.467
Oligonucleotide = CGGGCCGGCGGGGGUGGGGGGAACGUGGGGGAACCUGUGUUUCACGUGACUCAGCAGUGCCCGCCGCCGUCACCAGCUAUGCAUUCACUCCGUUUCCAGUGAGCAGAUGU; result = 0.583
Oligonucleotide = CUUUCCUGCACUUAUGGAAAUGCUUUGUCUUUCCCAAUGAAACUGAUGUUUGCUUGUCUGCUUUCUCUUUAUAGUACAUGAACAGUUCAGCCUUAGACUAUGUAACUGUU; result = 1.01
Oligonucleotide = CCUAAGCCACCUGCCCCUAGAGCCACAGCUGACCUGUGUGGAAACAGGGCUUUUUAUAACUAAAACCAGUUCACUAGAGACCUAGGAAUGGGCUGGGCUGAAAGUGAAAU; result = 0.642
